Experimental data of several laboratories.
A part holds a random share of what one study measured. Changes are numbered by the printed parent chain.

Study 1 — method: protein-binding microarray; form: double-stranded DNA, one strand shown; sample: in vitro; concentration: 250 nM; notes: 60-bp whole probe; added: salmon DNA 0.4 mg/ml; reference: random background probes; reading: higher = stronger binding; shared flanks, not repeated: GCCTAGCAC … GTCTTGATTCGCTTGACGCTGCTG
Target: Interferon regulatory factor 5, full length, phosphomimetic (IRF5, Homo sapiens, UniProt Q13568-2, residues 1-514, K96S/S451D/S453D/S456D/S462D)
Sequence	log fluorescence
TTAGGTTTCGCGTTTCGGTTAGTGCTA	7.72 z-score
AAAAATGATTGGTTGAACATGTGCTAG	0.46 z-score
TCAATTCTCTACTTGTGACTGTGCTAG	0.184 z-score
GACAATTTCAGTTTCGAGACGTGCTAG	8.09 z-score
TTAGGACTGGGGTTTCAGTTAGTGCTA	0.82 z-score
TCATGGTTCCCATTCCAACTGTGCTAG	-0.0616 z-score
TCAACTTTATGTAGGAAACTGTGCTAG	0.148 z-score
GACGCTTTCAGTTCCGAGACGTGCTAG	4.03 z-score

Study 2 — target: CRIPT, C-terminal peptide; method: DHFR complementation, deep sequencing; sample: yeast; reference: wild type; reading: higher = weaker binding
Notes: single substitutions, model-inferred values
Starting sequence: ERBIN, PDZ domain 1 (human); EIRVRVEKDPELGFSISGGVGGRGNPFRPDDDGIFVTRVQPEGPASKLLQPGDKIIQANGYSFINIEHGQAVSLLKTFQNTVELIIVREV; partner TKNYKQTSV
Substitution	binding free energy change
Q50G	0.319 kJ/mol
D9K	-1.31 kJ/mol
I55V	0.825 kJ/mol
R38I	0.529 kJ/mol
L48S	0.729 kJ/mol
G43P	1.95 kJ/mol
V4N	6.61 kJ/mol
G43I	4.75 kJ/mol

Study 3 — method: RNA Bind-n-Seq; form: RNA; sample: in vitro; concentration: 20 nM; notes: 6-mer, flanks averaged, single round; added: 150 mM KCl; reference: input library; reading: higher = stronger binding
Target: TAR DNA-binding protein 43, full length, His tag (TARDBP, Homo sapiens, UniProt Q13148, residues 1-414)
Sequence	6-mer enrichment (R)
CGACAC	0.728
UUUCGC	0.593
UGCACA	0.71
UGUUGU	0.893
AUCUUU	0.603
UCCUUG	0.705
ACCGAC	0.653
UCUCCG	0.605

Further values, each from its own experiment — starting sequence: viral docking peptide; KGVKRKLFAEDSS
Substitution	target	assay	test system	setting	how to read	endpoint	result
D11T	CCNA2, cyclin fold, Cln2 fusion (human)	yeast growth competition, sequencing	yeast	strong parent motif	reference: not given, higher = stronger binding	normalised enrichment score	6.35

A few entries again (study 2):
Substitution	binding free energy change
G43I	4.75 kJ/mol
